Published values of several laboratories.
Each numbered part is a random draw from the data of one study; scales do not carry over between parts. Changes are numbered by the printed parent chain.

Set 1
Target: BATF, bZIP domain (human)
Technique: DHFR protein complementation
Medium: yeast
Setting: single substitutions, most at no-binding floor
Relative to: wild-type JUN-FOS pair
Direction: higher = stronger binding
Starting sequence: JUN, bZIP domain (human); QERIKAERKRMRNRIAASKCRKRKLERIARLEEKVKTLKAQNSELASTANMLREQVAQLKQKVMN; partner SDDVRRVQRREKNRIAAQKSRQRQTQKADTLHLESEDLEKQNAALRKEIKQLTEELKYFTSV
| Variant | binding fitness [natural log] |
| --- | --- |
| E33H | -0.168 |
| A46H | -0.0369 |
| A29S | -0.0568 |
| Q55Y | -0.284 |
| S47D | 0.0574 |
| Q41M | -0.0577 |
| V35W | -0.176 |
| R53W | -0.733 |
| K39C | -0.433 |
| E44W | -0.179 |

Set 2
Target: Histone acetyltransferase KAT6A, winged helix 2, GST fusion (KAT6A, Homo sapiens, UniProt Q92794, residues 85-181)
Technique: protein binding microarray
Form: double-stranded DNA, one strand shown
Medium: in vitro
Tested at: not given
Setting: 8-mer, flanks averaged, mean of 2 arrays, mostly near background
Relative to: not given
Direction: higher = stronger binding
Target sequence (chain): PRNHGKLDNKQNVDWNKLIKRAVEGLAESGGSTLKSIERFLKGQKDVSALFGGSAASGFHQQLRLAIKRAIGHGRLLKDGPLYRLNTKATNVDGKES
| Oligonucleotide | E-score |
| --- | --- |
| CAAACCTA | 0.0318 |
| GAGCTTCC | 0.106 |
| AGATTATG | -0.145 |
| CGCATTGA | 0.102 |
| GATGGTGC | -0.236 |
| CAGCCGCC | 0.0636 |
| CAAAGACC | 0.0867 |
| AAGTGCTG | 0.0729 |
| AAGAACCA | 0.0171 |
| CGTATACG | -0.115 |
| TCTATGAA | 0.13 |
| ACTAGCGC | -0.00441 |
| AGAGTTGA | 0.0178 |

Set 3
Target: CCNE1, cyclin fold, Cln2 fusion (human)
Technique: yeast growth competition, sequencing
Medium: yeast
Setting: weak parent motif
Relative to: not given
Direction: higher = stronger binding
Starting sequence: MASTL docking peptide (human); PMIAKNLMCELDE
| Variant | normalised enrichment score |
| --- | --- |
| PMIAKNLHCELDE [M8H] | -0.0619 |
| PMIFKNLMCELDE [A4F] | 0.292 |
| PMIAFNLMCELDE [K5F] | -0.17 |
| PMIAKNLMCEQDE [L11Q] | 0.116 |
| PMIAKNLMWELDE [C9W] | -0.0993 |
| PMIAKNLMCTLDE [E10T] | -0.155 |
| PMIAKNLTCELDE [M8T] | -0.303 |
| PMVAKNLMCELDE [I3V] | -0.2 |

Single results of other studies
| Substance | target | assay | test system | conditions | scale | measurement | value |
| --- | --- | --- | --- | --- | --- | --- | --- |
| PhoQ, residues 284 288 289 292 302 303 GLASVI | PhoP, residues 12 14 15 18 19 IQFRS (Escherichia coli, UniProt P23836) | Sort-seq, refers to: YFP reporter | E. coli | PhoQ-PhoP variant library, with: 10 µM Mg2+ | relative to: high Mg2+ state, higher = stronger signaling | fold induction | 16.8 |

For quick reference, copied from above (set 3):
| Variant | normalised enrichment score |
| --- | --- |
| PMIAKNLHCELDE [M8H] | -0.0619 |
| PMIFKNLMCELDE [A4F] | 0.292 |
| PMIAFNLMCELDE [K5F] | -0.17 |
| PMIAKNLMCEQDE [L11Q] | 0.116 |
| PMIAKNLMWELDE [C9W] | -0.0993 |
